# Measured values pooled from the literature.
# A part holds a random share of what one study measured. Changes are numbered by the printed parent chain.

# Series 1 — method: DHFR PCA, deep sequencing; sample: yeast; added: (+)-ABA 1.4 µM; baseline: wild-type fitted maximum; reading: higher = stronger binding
# Target: ABI1, truncated, D143A, DHFR fusion (Arabidopsis thaliana)
# Notes: methotrexate growth selection, single substitutions
# Starting sequence: PYL1, truncated, DHFR fusion (Arabidopsis thaliana); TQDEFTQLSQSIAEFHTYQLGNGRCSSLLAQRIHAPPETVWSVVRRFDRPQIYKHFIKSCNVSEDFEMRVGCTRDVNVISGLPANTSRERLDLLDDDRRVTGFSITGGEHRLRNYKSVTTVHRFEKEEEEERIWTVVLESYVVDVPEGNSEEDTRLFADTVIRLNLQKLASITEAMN
Variant,relative binding score [%]
S63C,51.2
T73Q,45.8
F66Y,31.7
K54Q,2.61
H55P,109
H55C,83.1
I79C,50.9
T73Y,72.4
R49K,70.8
F47Q,-0.584
V76T,-0.692
R45W,-4.03
H16F,-8.33
E129Q,55
D48Q,-6.37
Q19P,66.1

# Series 2 — method: RNA Bind-n-Seq; molecule type: RNA; sample: in vitro; concentration: 365 nM; baseline: no-protein control; reading: higher = stronger binding
# Target: RNA binding protein fox-1 homolog 2, RRM domain, GST-SBP tag (RBFOX2, Homo sapiens, UniProt O43251-10, residues 100-194)
# Notes: natural RNA segment, single round, ends assumed
# Residues (chain): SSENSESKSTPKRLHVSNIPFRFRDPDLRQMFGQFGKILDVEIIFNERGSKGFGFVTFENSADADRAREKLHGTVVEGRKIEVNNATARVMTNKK
Strand,RBNS enrichment (R)
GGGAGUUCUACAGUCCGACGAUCCGUGACACAGAGGCAGCUGUCAGCUGGCACCCACCUCGUCCCCCAGACCACCCUUCUUCCCAAGUGUUGAUUAUGUGACUUCUGAUACAUCCGUUCUCAAACUCCGGUGUUGGAAUUCUCGGGUGCCAA,0.55
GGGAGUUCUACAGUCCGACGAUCCCUAAUUUAUUCUUAUUUGACAGAGGGUAUGGAAGACUUGCAAUUUGAAAACUGGGGACCAGUUCCAAAGUCAGUAAUUGUGUUAACCACGUGUAUAACAGCUCUGCUGGUGGAAUUCUCGGGUGCCAA,0.424
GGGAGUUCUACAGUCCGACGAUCACCUGUUCAGAUGAGAAGAUUUUUGUCUUUUGUAGCACUGAUAACCAGGAGAAGCCAUUAAAAGCCACUGGUUAUUUUAUUUUUCAUCAGGCAAUUUUCGAGGUUUUUAUUGGAAUUCUCGGGUGCCAA,0.348
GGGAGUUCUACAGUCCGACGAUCUCGACACCAGGAGCUGUUGGGAGAAAGCAAUACGUUUGUGCAGAAUCUCUAUGUAUAUUCUAUUUUAUUAAAUUAAUUGAAUCUAGUAUAUGCUGGAUGUACGACAUUUUUGGAAUUCUCGGGUGCCAA,0.613
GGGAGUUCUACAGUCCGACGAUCACAGACUGCCUGCUCUAGGAUCUCUUGCUGUCUUCUCCUGGUCUCUGGCUUCUGCCUCACCUGCAACAGGUCUGUCUAUACAUCUGUCUGGGUUGCUGUCAUUUCUGUUUUGGAAUUCUCGGGUGCCAA,1.89
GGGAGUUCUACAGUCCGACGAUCUAGCUCUUACCUACUCCGCCACCAGCGUACCCACUCUGGCCAGAAGCCCUACAAAUGUCCACACUGUGGGAAGGCCUUUGGCGACAGCUCCUACCUCCUGCGACACCAGCUGGAAUUCUCGGGUGCCAA,0.321
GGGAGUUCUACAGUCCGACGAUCUGGUCCCCUCUGCUCUGUUCCCUCCUCCUGUGGGAAGGGACUCGGAAGCUUGUCUGCCCCUCACCAGAGGUGGCCUCUGCACAUGGCACACCAGCCGGGGCUGUACCGCAUGGAAUUCUCGGGUGCCAA,4.98
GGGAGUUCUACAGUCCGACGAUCACCUAGAAACAAGGAUUCUACCUGAACUGAAAGGACUGUGUGACCUCCCCCAAGCCAACCACUUUCACCUGGGAUGACUUUCGAUUAUGCUUUGUUUUGGGGCUGUAUUUUGGAAUUCUCGGGUGCCAA,0.257
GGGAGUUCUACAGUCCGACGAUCGGUCUUGAAUUUUGUUGGUUACAUAUGCCUUUUUGUUGUUGUUUGUCUUCACUUUUGAUAUAUAAACAGGUAAAUAUGUUUUUUAAAAAAUACUAAAUAUAGAGAAUAUGUGGAAUUCUCGGGUGCCAA,0.65
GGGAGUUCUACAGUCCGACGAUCGAACAGAACCCAGCCCAUAAGAGACAUUCUCAGAUGAAACUCUGUUUUCUUGCCCCAGUCAGGCUCAAGCCCUGUGGUUGUAGGAAUAAAGCCUGUGAUCUCAAGAAGUGUGGAAUUCUCGGGUGCCAA,0.287
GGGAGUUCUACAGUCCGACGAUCCUAGGCAGGUUUGACAAAGGUCAGUAAUACGGUUUCCCCUGGGGUUGACCAGAUGUUCCAAAAUAUCUGCAUCCACCUGGAGAUGCAGCUAAGUGGGUCCUUAUGUACACUGGAAUUCUCGGGUGCCAA,0.888
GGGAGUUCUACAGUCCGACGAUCCACAGGGAGGGCAGGCACCUGGAGGCAGGAGCUGACAGCAGAGGCCAGAGAGGAGAGCCACUUACUGGCUUGUUCAGCUGCUUUCUUACAGAACAUAGCCUGCCAGCUCAUGGAAUUCUCGGGUGCCAA,0.417

# Series 3 — target: CCNE1, cyclin fold, Cln2 fusion (human); method: yeast growth competition, sequencing; sample: yeast; notes: strong parent motif; baseline: not given; reading: higher = stronger binding
# Starting sequence: CDC25A docking peptide (human); PPHRRRLLFACSP
Variant,normalised enrichment score
A10W,1.46
A10E,3.2
F9K,0.843
S12W,1.73
A10K,1.53
R4G,1.08
L8H,1.25
S12P,1.51
L8P,0.122
P13L,0.678
R5N,-0.102
P1K,2.45
P13N,1.64
L7K,0.852
P2H,1.84
P2A,0.938
P1L,1.07
H3T,1.94
A10R,1.13
L7V,0.445
S12K,0.425
S12G,1.4
R6S,0.366
S12T,1.05
P1I,1.4

# Series 4 — target: BATF3, bZIP domain (human); method: DHFR protein complementation; sample: yeast; baseline: wild-type JUN-FOS pair; reading: higher = stronger binding
# Notes: single substitutions, most at no-binding floor
# Starting sequence: JUN, bZIP domain (human); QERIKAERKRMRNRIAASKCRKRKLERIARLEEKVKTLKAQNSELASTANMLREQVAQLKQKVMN; partner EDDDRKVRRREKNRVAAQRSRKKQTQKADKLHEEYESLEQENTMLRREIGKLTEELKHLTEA
Variant,binding fitness
E32K,0.115 natural log
A57V,0.294 natural log
A46C,0.172 natural log
T48N,0.101 natural log
E33G,0.149 natural log
L52T,-0.629 natural log
V35G,-0.247 natural log
L59A,0.278 natural log
S47P,-0.26 natural log
V56T,0.0264 natural log
L59S,0.045 natural log
Q55G,-0.0265 natural log

# Series 5 — method: protein binding microarray; molecule type: double-stranded DNA, one strand shown; sample: in vitro; concentration: not given; baseline: not given; reading: higher = stronger binding
# Target: Histone acetyltransferase KAT6A, both winged helices, GST fusion (KAT6A, Homo sapiens, UniProt Q92794, residues 1-181)
# Notes: 8-mer, flanks averaged, mean of 2 arrays, mostly near background
# Construct (chain): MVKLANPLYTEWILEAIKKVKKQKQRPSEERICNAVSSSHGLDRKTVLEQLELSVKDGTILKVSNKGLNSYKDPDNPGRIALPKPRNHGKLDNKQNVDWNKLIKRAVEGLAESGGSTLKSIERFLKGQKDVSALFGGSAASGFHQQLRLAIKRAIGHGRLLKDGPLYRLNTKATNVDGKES
Strand,E-score
AGGGTCTG,-0.16
GTTTTCGA,-0.0113
AGGAGCTC,-0.125
CTTACGTC,-0.0751
GAGCCGGA,0.0874
AAGCGAGC,0.0665
CACGCTGG,-0.0607
CACTACGC,0.12
GTCTGCAC,-0.0259
ACGATGAT,-0.0138
GTGAGTGA,-0.0876
AGCCCTTG,-0.185
CCCCAGTA,-0.172
AGCACGAA,-0.117
TGCCTTAA,-0.219
CGACGGGA,0.332
TCACTCGA,-0.188
CATAATGC,0.0319
CCCGCAAG,0.0919
AAGTAATA,-0.04
GTCGGAGA,0.127
ATGTCTTC,-0.0164
GTGAGATA,-0.0278
GTTCCCGA,0.172
ACCGACAA,0.0128

# Series 6 — method: competition protein-binding microarray; molecule type: double-stranded DNA, one strand shown; sample: in vitro; concentration: 2 µM; added: Cbf1 competitor, 0.05 µM; reading: higher = stronger binding
# Target: Phosphate system positive regulatory protein PHO4, full length, GST-tagged (PHO4, Saccharomyces cerevisiae, UniProt P07270, residues 1-312)
# Notes: whole 60-bp probe, lowest competitor level
# Residues (chain): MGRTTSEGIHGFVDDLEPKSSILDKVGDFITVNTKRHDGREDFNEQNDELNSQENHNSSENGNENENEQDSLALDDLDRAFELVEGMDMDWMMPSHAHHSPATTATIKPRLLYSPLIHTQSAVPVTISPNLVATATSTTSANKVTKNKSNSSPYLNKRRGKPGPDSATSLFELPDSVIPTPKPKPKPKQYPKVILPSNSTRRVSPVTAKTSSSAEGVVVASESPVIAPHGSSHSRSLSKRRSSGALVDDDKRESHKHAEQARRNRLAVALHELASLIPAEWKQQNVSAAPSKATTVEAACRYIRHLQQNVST
Strand,fluorescence intensity [a.u.]
GGAAGAAATGTCCATCACGTGATGGAGAACCAATGAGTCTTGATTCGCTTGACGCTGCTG,12900
AAGGAACAGTTCCATCACGTGTGTTTGTTTGTTGGGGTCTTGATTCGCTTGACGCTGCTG,16500
AATTTGGTAAGCCATCACGTGGTGAGACAGTTTTCCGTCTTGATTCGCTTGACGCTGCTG,17500
CTGGTAGCCCTATCGCACGTGCCGATCTGATCAAGGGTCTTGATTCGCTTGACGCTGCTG,19900
AAAAGATATTATCCTCACGTGGAGTTATTGTAAAAAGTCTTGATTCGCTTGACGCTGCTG,13000
CATCATTTGCCACTCCACATGACAATGTAAAAGCCAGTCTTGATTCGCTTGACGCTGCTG,7490
TATGAATGCAACGGCCACGTGGGTAGAATGGGAGGAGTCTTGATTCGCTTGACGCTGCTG,21700
ACATCCTGCGAATCTCATGTGTGTACTGAATCCATCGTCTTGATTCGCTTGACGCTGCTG,6340
AAATCATTATTTACGCGCGTGCAAATTTCGCCATCAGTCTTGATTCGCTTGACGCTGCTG,9560
TTATTGTCATTTGAAGGCGTGATGGGTATGTCGTTAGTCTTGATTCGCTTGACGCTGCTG,6990
ACTATACTCGTCTGGCACGTGAAGTACATGAACTCAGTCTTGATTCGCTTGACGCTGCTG,16600
CTCTAAATCCCGAGTCACGCATACTTTGGCAGAAAGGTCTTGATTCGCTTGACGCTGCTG,7340
CTTTCCCGATCTTGATTAGTGGGTGTAGCACATTTGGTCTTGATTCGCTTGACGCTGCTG,4790
GTTCAAGTCTCCTTCCACGGGAATGGTCGGGTAAATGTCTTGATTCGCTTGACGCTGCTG,5830
TAGGACCAATTTGGCAATGTGACTCGCGGAATATGGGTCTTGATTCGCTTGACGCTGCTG,5790
CATACCCAACCTTGGATTGTGGGTGAAGATATTTGTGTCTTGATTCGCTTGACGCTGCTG,4910
GCCAAAATGCACTGTCACACGCTAAAGTGCTCGAATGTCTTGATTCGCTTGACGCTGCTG,5350
GTCTTGTCTCATTGCCGCGTGGGTGTCCCCACTTCAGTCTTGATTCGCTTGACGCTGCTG,11700
TTTTAGCCCCACCTCCAGGTGATGCTTATTTGCTAGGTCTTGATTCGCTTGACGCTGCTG,3880
TATTGGTTTTGGAAACACGTTTCGAATCTTCAGTATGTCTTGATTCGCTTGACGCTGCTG,12300

# Excerpt of the above (series 1):
Variant,relative binding score [%]
T73Q,45.8
F66Y,31.7
K54Q,2.61
H55P,109
H55C,83.1
I79C,50.9
T73Y,72.4
R49K,70.8
F47Q,-0.584
V76T,-0.692
